Published values collected from several papers.
Parts stem from different laboratories: compare values within a part only. Positions count from the first letter of the parent shown.

Set 1
Target: Protein C-ets-1 (ETS1, Homo sapiens, UniProt P14921, residues 1-441, K379A, full length assumed)
Method: protein-binding microarray
Form: double-stranded DNA, one strand shown
Medium: in vitro
Concentration: not given
Notes: k-mer, scored over probes, only values ≥0.25
Reading: higher = stronger binding
Target sequence (chain): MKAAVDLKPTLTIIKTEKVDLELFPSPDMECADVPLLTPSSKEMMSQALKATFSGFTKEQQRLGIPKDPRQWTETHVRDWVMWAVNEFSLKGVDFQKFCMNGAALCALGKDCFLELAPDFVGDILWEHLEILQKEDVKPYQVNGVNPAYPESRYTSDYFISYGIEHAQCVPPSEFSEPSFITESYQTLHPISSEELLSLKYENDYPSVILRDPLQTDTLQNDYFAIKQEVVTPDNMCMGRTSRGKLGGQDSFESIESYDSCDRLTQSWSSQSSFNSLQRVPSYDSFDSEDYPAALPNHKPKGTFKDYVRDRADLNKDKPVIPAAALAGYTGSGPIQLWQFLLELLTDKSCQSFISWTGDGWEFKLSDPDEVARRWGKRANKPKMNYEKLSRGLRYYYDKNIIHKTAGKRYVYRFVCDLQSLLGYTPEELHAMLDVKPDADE
Oligonucleotide | E-score
ACTCCGGG | 0.339
ACCGGTCA | 0.376
CATGTCAC | 0.261
CATGATAA | 0.26
GCGACAAC | 0.263
AACATACT | 0.256
AATTATAC | 0.313

Set 2
Target: CCNB2, cyclin fold, Cln2 fusion (human)
Method: yeast growth competition, sequencing
Medium: yeast
Notes: weak parent motif
Baseline: not given
Reading: higher = stronger binding
Starting sequence: CDC6 docking peptide (human); TLKGRRLVFDNQL; partner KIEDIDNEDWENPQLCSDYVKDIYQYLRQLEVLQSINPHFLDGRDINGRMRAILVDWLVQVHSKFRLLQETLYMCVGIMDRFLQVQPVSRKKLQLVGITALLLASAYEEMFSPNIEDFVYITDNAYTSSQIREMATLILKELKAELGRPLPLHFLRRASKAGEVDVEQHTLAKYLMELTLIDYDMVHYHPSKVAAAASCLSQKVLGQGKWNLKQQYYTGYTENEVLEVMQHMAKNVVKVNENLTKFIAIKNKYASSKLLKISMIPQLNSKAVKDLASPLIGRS
Substitution | normalised enrichment score
TLTGRRLVFDNQL [K3T] | 0.25
TLKGRRLVFDNEL [Q12E] | -0.313
TLAGRRLVFDNQL [K3A] | -0.332
TLKGRRLVFMNQL [D10M] | 0.681
TLKGRRLVFDNLL [Q12L] | 0.425

Set 3
Target: Ras GTPase-activating protein-binding protein 1, C-terminal RGG region (G3BP1, Homo sapiens, UniProt Q13283)
UniProt Q13283, sequence (whole entry, looked up): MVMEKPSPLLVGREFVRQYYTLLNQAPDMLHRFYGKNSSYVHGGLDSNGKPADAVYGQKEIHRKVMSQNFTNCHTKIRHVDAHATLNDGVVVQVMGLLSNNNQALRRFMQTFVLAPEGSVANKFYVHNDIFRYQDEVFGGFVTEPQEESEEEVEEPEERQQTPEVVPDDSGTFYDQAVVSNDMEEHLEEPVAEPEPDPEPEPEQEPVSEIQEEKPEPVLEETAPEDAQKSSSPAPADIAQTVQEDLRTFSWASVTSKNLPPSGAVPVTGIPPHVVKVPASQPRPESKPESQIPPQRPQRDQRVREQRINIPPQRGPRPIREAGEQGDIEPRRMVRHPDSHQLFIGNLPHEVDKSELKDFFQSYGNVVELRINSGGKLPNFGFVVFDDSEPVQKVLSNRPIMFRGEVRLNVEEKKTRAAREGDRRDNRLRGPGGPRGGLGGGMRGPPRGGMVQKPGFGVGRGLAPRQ
Method: RNA Bind-n-Seq
Form: RNA
Medium: in vitro
Concentration: 1 µM
Notes: whole 134-nt RNA, ends assumed
Together with: 150 mM KCl
Baseline: input library
Reading: higher = stronger binding
Constant ends, left off below: GGGAGUUCUACAGUCCGACGAUC … UGGAAUUCUCGGGUGUCAAGG
Oligonucleotide | log2 enrichment
GCAGGAAGUAAAAACAAAUGGAAAUGCUUCGGAUAGUGGCAGGGGUGGGGGCUGCUAAGGAAAGGGUGGGAUGGGAGUGGGUAAAGAGUU | 0.775
GUCCUGUGCUACACAUCGUAUGUACCGAAUCGGGGAAAAAGGGGUUUUUGGGGUGGGGAAAGUAUUAUGUUACGCCGUUCGGAUCUGCAC | 1.13
CUCAAGUCCUGUGCUACACAUCGUAUGUACCGAAUCGGUUGGUUGGGGUUGGGAAAGUAUUAUGUUACGCCGUUCGGAUCUGCACUUCCA | -0.691
UCCUGUGCUACACAUCGUAUGUACCGAAUCGGGUUUUUUUGGGUUUUUUUGGGUUUGGGAAAGUAUUAUGUUACGCCGUUCGGAUCUGCA | -0.257
GCAGGAAGUAAAAACAAAUGGAAAUGCUUCGGAUAGUGGCAGGGGUGGGGAUUGCUAAGGAAAGGGUGGGAUGGGAGUGGGUAAAGAGUU | 2.01
CCUCAAGUCCUGUGCUACACAUCGUAUGUACCGAAUCGGGUUGGUUGGGUUGGAAAGUAUUAUGUUACGCCGUUCGGAUCUGCACUUCCA | -0.802
GUCCUGUGCUACACAUCGUAUGUACCGAAUCGGGAAAAAGGGUUUUUUUGGGAAAGGGAAAGUAUUAUGUUACGCCGUUCGGAUCUGCAC | -0.835
UGUGUGCAUUCCCUGCGCCAAGGGCUUCCCCAGCUCUGAGCAGCUCAAUGCGCACGUGGAGACUCACACGGAGGAAGAGCUGUUCAUCAA | -1.46

Single results of other studies
Molecule | target | assay | test system | conditions | scale | measurement | result
PhoQ, residues 284 288 289 292 302 303 ALAMYF | PhoP, residues 12 14 15 18 19 SPWRL (Escherichia coli, UniProt P23836) | Sort-seq, measured: YFP reporter | E. coli | PhoQ-PhoP variant library, together with: 10 µM Mg2+ | baseline: high Mg2+ state, higher = stronger signaling | fold induction | 14.1

Some of these lines once more (set 2):
Substitution | normalised enrichment score
TLTGRRLVFDNQL [K3T] | 0.25
TLKGRRLVFDNEL [Q12E] | -0.313
TLAGRRLVFDNQL [K3A] | -0.332
